Published values gathered from unrelated publications.
Values joined by “and” are separate records of one study, mostly repeats; a detail may differ.

Cn1ncc2cc(-c3cncc(Cl)c3N3CCC4(CCNC4=O)CC3)ccc21 — result for “log2 fold change”: -1.23 (LS174T; gene expression, microarray, refers to: PTGS2 mRNA; concentration not given, 4 h; baseline: untreated cells).
The translation activity of Cc1cc(Cl)c(OCCOCCN2CCN(C)CC2)c(Br)c1.O=C(O)C(=O)O is reported as 109% (Trypanosoma cruzi; reporter mRNA translation, inhibitor, refers to: Renilla luciferase mRNA; cell-free extract; concentration not given, test 2; baseline: positive over negative control).
For C=CC(=O)Nc1cccc(Cn2ncc3cnc(Nc4cnn(CCOC)c4)nc32)c1, “percent of control” read 96% (PLK1 human; binding, KINOMEscan; 100 nM; lower = stronger binding).
CCN(CC)CCCCCCNc1cc(OC)cc2c(C)ccnc12.Cc1ccc(S(=O)(=O)O)cc1 gave a translation activity of 101% and 148% (Trypanosoma cruzi; reporter mRNA translation, inhibitor, refers to: Renilla luciferase mRNA; cell-free extract; concentration not given; baseline: positive over negative control).
CNS(=O)(=O)Nc1nccc(Cc2c(C)c3ccc(Oc4ncccc4F)cc3oc2=O)c1F gave an IC50 of 24.9 nM (DV-90; cell viability; 7 days).
Under “log2 fold change”, CN1CCCNC(=O)c2cccc(c2)C(=O)NCCCN(C)CCCNc2cccc3c2C(=O)c2cccc(c2C3=O)NCCC1 is recorded as 1.55 (SAS; RNA-Seq, refers to: IRAK4 mRNA; 1 µM, 6 h; baseline: untreated cells).
Cc1ncsc1-c1ccc(C(C)NC(=O)C2CC(O)CN2C(=O)C(NC(=O)CCCCCCCCCCN2CCCC(Nc3ncc(Cl)c(Nc4ccccc4S(=O)(=O)C(C)C)n3)C2)C(C)(C)C)cc1 (stereo not shown): “log2 fold change” -1.24 (22Rv1; RNA-seq, refers to: ZC3H12A mRNA; concentration not given; baseline: DMSO).
For CCN(CC)CC(=O)Nc1cccc(-n2cc(-c3ccc4ccc(-c5cn(-c6cccc(NC(=O)CN(CC)CC)c6)nn5)cc4c3)nn2)c1, the fold regulation was -1.71 (RCC4; PCR angiogenesis array, refers to: ANPEP; 5 x IC50, 6 h, normoxia; baseline: untreated).
Nc1ncc(-c2cc(-c3cnn(CC(F)(F)F)c3)ncc2F)nc1C(=O)NC1CNCC(F)C1 (stereo not shown) has a remaining binding of 100% (EPHA7; KINOMEscan; 1 µM; baseline: DMSO control).
For COC1CN([C@H]2CC[C@H]([C@@]3(C)Oc4c(Cl)cc(C(=O)NCc5c(SC)cc(C)[nH]c5=O)c(C)c4O3)CC2)C1, “log2 fold change” read 1.04 (RNA-seq, refers to: BCL9; human, whole blood; dose not given, 24 h; baseline: pretreatment baseline).
